Measurements from different studies.
Every numbered part comes from another study and shows a few of its results, in no order.
Sequence of UniProt P29317 (whole entry, looked up): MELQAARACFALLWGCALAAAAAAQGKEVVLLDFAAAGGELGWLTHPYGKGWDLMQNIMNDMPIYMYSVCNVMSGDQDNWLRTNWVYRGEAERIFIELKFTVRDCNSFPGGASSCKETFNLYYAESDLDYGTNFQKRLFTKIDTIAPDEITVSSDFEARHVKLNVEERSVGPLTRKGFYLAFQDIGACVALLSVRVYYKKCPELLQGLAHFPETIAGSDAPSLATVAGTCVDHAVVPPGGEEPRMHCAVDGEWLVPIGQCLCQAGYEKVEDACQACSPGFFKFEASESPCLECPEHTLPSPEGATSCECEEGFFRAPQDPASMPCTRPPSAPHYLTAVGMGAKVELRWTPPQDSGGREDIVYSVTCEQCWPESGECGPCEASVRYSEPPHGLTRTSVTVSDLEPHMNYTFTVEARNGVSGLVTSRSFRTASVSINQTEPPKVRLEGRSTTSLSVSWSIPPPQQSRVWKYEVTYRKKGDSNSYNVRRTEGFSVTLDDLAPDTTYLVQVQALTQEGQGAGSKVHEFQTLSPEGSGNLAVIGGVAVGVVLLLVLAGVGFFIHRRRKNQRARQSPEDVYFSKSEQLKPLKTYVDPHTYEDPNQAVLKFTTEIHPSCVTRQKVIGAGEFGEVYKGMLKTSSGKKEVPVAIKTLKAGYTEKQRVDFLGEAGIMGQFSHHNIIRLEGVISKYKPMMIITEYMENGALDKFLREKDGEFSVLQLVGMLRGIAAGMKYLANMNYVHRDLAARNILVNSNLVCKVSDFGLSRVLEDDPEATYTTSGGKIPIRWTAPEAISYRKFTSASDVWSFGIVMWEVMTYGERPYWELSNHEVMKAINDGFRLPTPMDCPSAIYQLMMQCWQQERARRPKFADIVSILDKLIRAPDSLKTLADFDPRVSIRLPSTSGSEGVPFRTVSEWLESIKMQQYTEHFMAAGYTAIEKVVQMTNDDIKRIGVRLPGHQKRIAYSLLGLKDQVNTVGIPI
Sequence of UniProt Q9P286 (whole entry, looked up): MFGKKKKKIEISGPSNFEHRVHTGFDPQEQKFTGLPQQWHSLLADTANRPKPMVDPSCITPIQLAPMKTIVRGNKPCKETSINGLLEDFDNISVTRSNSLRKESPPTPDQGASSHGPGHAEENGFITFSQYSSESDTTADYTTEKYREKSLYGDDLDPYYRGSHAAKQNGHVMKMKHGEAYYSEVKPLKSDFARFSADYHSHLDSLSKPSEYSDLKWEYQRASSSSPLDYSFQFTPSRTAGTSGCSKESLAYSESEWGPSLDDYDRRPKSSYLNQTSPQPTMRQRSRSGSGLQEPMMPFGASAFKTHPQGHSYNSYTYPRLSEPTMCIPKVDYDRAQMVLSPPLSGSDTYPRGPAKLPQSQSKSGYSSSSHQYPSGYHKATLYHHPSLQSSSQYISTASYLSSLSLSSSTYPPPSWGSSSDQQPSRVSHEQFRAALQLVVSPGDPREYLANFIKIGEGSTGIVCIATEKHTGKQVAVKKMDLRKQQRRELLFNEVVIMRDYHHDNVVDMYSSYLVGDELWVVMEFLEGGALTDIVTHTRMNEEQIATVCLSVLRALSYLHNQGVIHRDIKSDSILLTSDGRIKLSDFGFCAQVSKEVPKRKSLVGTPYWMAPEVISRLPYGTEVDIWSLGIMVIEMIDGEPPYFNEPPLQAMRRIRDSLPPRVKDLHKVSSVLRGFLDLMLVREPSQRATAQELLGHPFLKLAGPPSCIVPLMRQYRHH
Sequence of UniProt Q06418 (whole entry, looked up): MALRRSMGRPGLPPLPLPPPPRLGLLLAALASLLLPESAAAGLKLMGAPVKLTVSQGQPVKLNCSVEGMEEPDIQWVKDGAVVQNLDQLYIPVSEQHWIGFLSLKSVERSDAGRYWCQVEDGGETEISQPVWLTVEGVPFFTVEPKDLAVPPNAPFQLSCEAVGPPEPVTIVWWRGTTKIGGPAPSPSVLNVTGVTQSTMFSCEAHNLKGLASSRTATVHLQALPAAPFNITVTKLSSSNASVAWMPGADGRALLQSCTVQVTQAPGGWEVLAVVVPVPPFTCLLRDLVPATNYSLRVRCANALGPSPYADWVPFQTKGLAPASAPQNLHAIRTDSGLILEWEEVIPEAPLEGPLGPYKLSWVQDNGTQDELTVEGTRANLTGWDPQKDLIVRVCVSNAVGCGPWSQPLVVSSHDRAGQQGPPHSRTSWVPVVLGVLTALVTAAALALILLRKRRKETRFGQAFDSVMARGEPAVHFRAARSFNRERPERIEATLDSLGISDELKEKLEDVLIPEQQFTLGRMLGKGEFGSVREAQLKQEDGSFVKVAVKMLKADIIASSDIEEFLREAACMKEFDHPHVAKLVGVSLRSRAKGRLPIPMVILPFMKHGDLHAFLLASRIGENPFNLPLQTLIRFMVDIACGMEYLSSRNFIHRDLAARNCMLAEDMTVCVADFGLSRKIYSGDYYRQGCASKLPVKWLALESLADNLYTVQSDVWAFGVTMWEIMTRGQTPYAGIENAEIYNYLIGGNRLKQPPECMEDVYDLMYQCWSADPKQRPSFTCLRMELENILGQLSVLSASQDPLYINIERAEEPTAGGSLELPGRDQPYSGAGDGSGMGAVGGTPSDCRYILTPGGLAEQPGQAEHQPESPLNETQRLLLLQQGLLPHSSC
Sequence of UniProt P54753 (whole entry, looked up): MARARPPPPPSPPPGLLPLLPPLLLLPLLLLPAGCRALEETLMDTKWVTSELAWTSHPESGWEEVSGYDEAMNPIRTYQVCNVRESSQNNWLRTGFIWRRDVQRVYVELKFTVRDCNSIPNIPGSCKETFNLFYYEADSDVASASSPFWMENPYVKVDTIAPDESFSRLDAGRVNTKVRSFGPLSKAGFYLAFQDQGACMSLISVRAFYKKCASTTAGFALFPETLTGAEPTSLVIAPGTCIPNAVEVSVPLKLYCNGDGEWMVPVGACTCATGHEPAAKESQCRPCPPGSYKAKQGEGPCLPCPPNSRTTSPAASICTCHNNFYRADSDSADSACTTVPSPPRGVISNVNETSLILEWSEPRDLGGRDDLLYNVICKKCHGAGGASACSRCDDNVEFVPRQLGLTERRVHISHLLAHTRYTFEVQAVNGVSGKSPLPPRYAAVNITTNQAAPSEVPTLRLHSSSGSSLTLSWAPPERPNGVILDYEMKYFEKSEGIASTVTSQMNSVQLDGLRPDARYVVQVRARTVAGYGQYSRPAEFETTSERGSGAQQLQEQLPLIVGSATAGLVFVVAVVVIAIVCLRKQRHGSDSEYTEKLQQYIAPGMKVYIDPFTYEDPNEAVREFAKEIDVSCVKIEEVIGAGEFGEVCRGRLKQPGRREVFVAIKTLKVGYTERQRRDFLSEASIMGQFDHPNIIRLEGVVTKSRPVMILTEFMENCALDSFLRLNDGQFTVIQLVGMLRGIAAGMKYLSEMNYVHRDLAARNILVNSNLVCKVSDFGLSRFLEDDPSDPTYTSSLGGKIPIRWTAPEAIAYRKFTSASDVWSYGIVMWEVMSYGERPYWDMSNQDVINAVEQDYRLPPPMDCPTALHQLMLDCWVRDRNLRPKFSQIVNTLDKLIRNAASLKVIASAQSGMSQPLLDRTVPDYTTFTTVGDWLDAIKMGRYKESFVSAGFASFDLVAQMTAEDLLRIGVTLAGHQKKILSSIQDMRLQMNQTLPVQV
Sequence of UniProt Q05513 (whole entry, looked up): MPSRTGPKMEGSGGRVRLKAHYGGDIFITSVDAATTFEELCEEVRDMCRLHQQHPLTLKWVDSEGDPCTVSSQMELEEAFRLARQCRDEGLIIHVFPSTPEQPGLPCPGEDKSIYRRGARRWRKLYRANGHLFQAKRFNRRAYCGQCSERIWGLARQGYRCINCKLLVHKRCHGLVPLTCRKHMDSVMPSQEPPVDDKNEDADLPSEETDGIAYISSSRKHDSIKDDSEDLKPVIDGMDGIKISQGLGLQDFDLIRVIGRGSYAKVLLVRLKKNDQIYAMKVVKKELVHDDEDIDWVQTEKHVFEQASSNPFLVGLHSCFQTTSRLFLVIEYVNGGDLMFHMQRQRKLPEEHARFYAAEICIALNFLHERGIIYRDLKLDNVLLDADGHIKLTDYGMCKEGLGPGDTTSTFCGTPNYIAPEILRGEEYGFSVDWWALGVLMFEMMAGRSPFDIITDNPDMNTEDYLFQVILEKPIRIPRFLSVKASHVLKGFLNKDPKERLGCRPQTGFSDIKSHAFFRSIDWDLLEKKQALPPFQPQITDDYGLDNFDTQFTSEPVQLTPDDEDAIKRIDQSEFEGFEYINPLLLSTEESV
Sequence of UniProt O60285 (whole entry, looked up): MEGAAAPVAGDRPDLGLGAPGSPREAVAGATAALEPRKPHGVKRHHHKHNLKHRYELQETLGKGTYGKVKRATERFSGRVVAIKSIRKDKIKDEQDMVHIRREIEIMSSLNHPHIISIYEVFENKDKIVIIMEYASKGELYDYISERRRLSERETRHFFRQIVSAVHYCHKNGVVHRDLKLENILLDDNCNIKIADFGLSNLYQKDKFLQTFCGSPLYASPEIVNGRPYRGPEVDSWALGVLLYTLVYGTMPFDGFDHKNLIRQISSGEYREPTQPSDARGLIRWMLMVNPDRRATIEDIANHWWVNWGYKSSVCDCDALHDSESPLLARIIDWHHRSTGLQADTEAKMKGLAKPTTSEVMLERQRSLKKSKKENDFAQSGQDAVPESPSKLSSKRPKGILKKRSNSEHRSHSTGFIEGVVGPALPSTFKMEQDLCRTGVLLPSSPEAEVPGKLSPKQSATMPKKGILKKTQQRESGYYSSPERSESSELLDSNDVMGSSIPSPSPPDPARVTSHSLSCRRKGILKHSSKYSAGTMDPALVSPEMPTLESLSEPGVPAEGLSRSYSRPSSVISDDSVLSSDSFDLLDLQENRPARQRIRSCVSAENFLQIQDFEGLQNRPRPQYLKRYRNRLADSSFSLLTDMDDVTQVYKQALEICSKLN

Set 1
Species: female C57BL/6 mouse
Matrix: plasma
Route: oral
Dose: 10 mg/kg
Time: 1 h
Quantity: concentration
COC(=O)c1cc(Cl)ccc1N(C)C(=O)c1ccn2ncc(-c3ccc(C(N)=O)cc3)c2c1: 32.5 nM
CN(C(=O)c1ccn2ncc(-c3ccc(C(N)=O)cc3)c2c1)c1ccc(C#N)cn1: 659 nM
CCOC(=O)CN(C(=O)c1ccn2ncc(-c3ccc(C(=O)NC)cc3)c2c1)c1ccc(Cl)cc1: 293 nM

Set 2
Cell line: HaCaT
Tested at: 100 µM
Time: 18 h
Quantity: viability
O=c1oc2ccccc2c(O)c1Cc1c(O)c2ccccc2oc1=O: 40.5%
CN1CCN2c3ncccc3Cc3ccccc3C2C1 (centres unmarked): 97.9%
O=C1CN(/N=C/c2ccc([N+](=O)[O-])o2)C(=O)N1: 70.6%
CCOC(=O)c1ncn2c1CN(C)C(=O)c1cc(F)ccc1-2: 112%
NC(=O)c1ncn([C@@H]2O[C@H](CO)[C@@H](O)[C@H]2O)n1: 116%
CC(C)(C#N)c1cc(Cn2cncn2)cc(C(C)(C)C#N)c1: 93.4%
COc1cc(/C=C/C(=O)O)ccc1O: 97.8%
COC(=O)Nc1nc2ccc(Sc3ccccc3)cc2[nH]1: 89.7%

Set 3
Structure (SMILES): CC(C)CC(=O)N1CCc2nc(-c3ccc(Br)cc3)nc(N(C)Cc3ccccc3)c2C1
Observed: cell-free assay
Technique: competition with immobilised ligand
Tested at: 0.1 µM
Quantity: remaining binding
TYRO3 (Homo sapiens, UniProt Q06418): 100%
NUAK1 (Homo sapiens, UniProt O60285): 100%
COQ8B (Homo sapiens, UniProt Q96D53): 100%
EPHA2 (Homo sapiens, UniProt P29317): 100%
PAK5 (Homo sapiens, UniProt Q9P286): 100%

Set 4
Compound: CCOc1cc2ncnc(Nc3cccc(Br)c3)c2cc1OCC
Observed: enzyme activity
Mode: inhibitor
Tested at: 0.5 µM
Reference: control
Quantity: remaining activity
RPS6KA3 (Homo sapiens, UniProt P51812): 89.9%
TEC (Homo sapiens, UniProt P42680): 120%
SIK2 (Homo sapiens, UniProt Q9H0K1): 109%
BRSK2 (Homo sapiens, UniProt Q8IWQ3): 94%
Cyclin-dependent kinase 5, with p35 (CDK5, Homo sapiens, UniProt Q00535): 99.2%
RPS6KB2 (Homo sapiens, UniProt Q9UBS0): 102%
PAK1 (Homo sapiens, UniProt Q13153): 95.2%
ACVRL1 (Homo sapiens, UniProt P37023): 103%
IGF1R (Homo sapiens, UniProt P08069): 101%
ERBB2 (Homo sapiens, UniProt P04626): 13.8%
CLK2 (Homo sapiens, UniProt P49760): 92.6%
EPHB3 (Homo sapiens, UniProt P54753): 99.7%
MUSK (Homo sapiens, UniProt O15146): 92.6%
EPHA2 (Homo sapiens, UniProt P29317): 80.3%
FLT1 (Homo sapiens, UniProt P17948): 85%
MELK (Homo sapiens, UniProt Q14680): 88.1%
PAK5 (Homo sapiens, UniProt Q9P286): 99.1%
FES (Homo sapiens, UniProt P07332): 96.8%
Cyclin-dependent kinase 2, with cyclin E (CDK2, Homo sapiens, UniProt P24941): 94.4%
YES1 (Homo sapiens, UniProt P07947): 43.2%
CSNK1D (Homo sapiens, UniProt P48730): 103%
TYRO3 (Homo sapiens, UniProt Q06418): 92.2%
PRKCZ (Homo sapiens, UniProt Q05513): 97.8%
DYRK1A (Homo sapiens, UniProt Q13627): 98.7%
SGK2 (Homo sapiens, UniProt Q9HBY8): 106%

Set 5
Species: human
Matrix: microsomes or S9
Tested at: 2 µM
Time: 0.5 h
Quantity: remaining compound
CC(C)COc1cc(=O)n2c(c1C(=O)NC1CCN(C)CC1)CCCCC2: > 99%
CCC(C)OC(=O)c1c(NC(=O)C2CCN(S(C)(=O)=O)CC2)sc2c1CCCC2 (centres unmarked): 33.2%
NC(=O)c1cccc2c1nc1scc(CN3CCCC3)n12: 53.6%
COC(=O)c1sc2ncn(CC(C)=O)c(=O)c2c1C: 21.5%
Cn1nccc1NC(=O)c1cnc2c(F)cc(F)cc2c1O: 76.2%

Set 6
Target: Diamine acetyltransferase 1 (Homo sapiens, UniProt P21673)
Mode: inhibitor
Tested at: 10 µM
Reference: control
Quantity: remaining activity
Residues (P21673 1-171): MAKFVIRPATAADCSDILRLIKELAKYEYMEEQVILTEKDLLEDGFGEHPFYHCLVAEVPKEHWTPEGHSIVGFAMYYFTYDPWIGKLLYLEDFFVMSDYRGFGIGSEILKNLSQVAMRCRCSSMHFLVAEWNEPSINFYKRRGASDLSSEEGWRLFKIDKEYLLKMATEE
CC(O)(CC(=O)O)CC(=O)O: 77.8%
Oc1cc(O)c2c(c1)O[C@H](c1ccc(O)c(O)c1)[C@H](O)[C@H]2c1c(O)cc(O)c2c1O[C@H](c1ccc(O)c(O)c1)[C@H](O)[C@H]2c1c(O)cc(O)c2c1O[C@H](c1ccc(O)c(O)c1)[C@H](O)C2: 86.9%
COc1ccc(C=O)c(O)c1: 95.8%
N[C@@H](CSSC[C@H](N)C(=O)O)C(=O)O: 117%

Repeated from above (set 4):
TYRO3 (Homo sapiens, UniProt Q06418): 92.2%
Cyclin-dependent kinase 2, with cyclin E (CDK2, Homo sapiens, UniProt P24941): 94.4%
ACVRL1 (Homo sapiens, UniProt P37023): 103%
